Published values of several laboratories.
Lines come from different studies, so protocols differ. ± marks the error that the study gave.

O=C([O-])CN1CCN(CC(=O)[O-])CCN(CC(=O)NCCc2ccc3c(c2)C2C=CCC2C(c2cc4c(cc2Br)OCO4)N3)CCN(CC(=O)[O-])CC1.[111In+3] (stereo not shown)
tissue uptake (mice with Hec50 tumour xenograft, liver; 2 h, together with: G-1 5 µg blocking): 4.98 ± 0.71 %ID/g

CCCC[C@H](NC(=O)CN1CCC(NC(=O)CN2CCN(CC(=O)O)CCN(CC(=O)O)CCN(CC(=O)O)CC2)CC1)C(=O)N[C@H]1CC(=O)NCCCC[C@@H](C(N)=O)NC(=O)[C@H](Cc2c[nH]c3ccccc23)NC(=O)[C@H](CCCNC(=N)N)NC(=O)[C@@H](Cc2ccccc2)NC(=O)[C@H](Cc2c[nH]cn2)NC1=O [gallium-68 labelled]
tissue uptake (male C57BL/6J mice, B16-F10 tumours, thyroid; intravenous, 1 h, blocking study, together with: 100 µg non-radioactive Ga-peptide): 1.3 ± 1.5 %ID/g

O=C([O-])CN1CCN(CC(=O)[O-])CCN(CC(=O)[O-])CCN(CC(=O)[O-])CC1.[64Cu+2]
tissue uptake (healthy athymic nude mice, liver; intravenous, 15 min): 2.32 %ID/g

CCCC[C@@H]1NC(=O)[C@@H](NC(=O)[C@H](CCC(=O)O)NC(=O)CNC(=O)CN2CCN(CC(=O)O)CCN(CC(=O)O)CCN(CC(=O)O)CC2)CCCCNC(=O)C[C@@H](C(N)=O)NC(=O)[C@H](C(C)C)NC(=O)[C@@H]2CCCN2C(=O)[C@H](CCCNC(=N)N)NC(=O)CNC(=O)[C@H](Cc2c[nH]c3ccccc23)NC(=O)[C@H](CCCNC(=N)N)NC(=O)[C@@H](Cc2ccccc2)NC(=O)[C@H](Cc2c[nH]cn2)NC(=O)[C@H](CCC(=O)O)NC1=O [gallium-67 labelled]
tissue uptake (normal C57 mice, heart; intravenous, 0.037 MBq, 4 h): 0.24 ± 0.07 %ID/g

N=C(N)NCCC[C@H](NC(=O)CON=C[C@H](F)[C@@H](O)[C@H](O)[C@H](O)CO)C(=O)NCC(=O)N[C@@H](CC(=O)O)C(=O)O [fluorine-18 labelled]
tissue uptake (nude mice U-87 MG tumour, blood; intravenous, 2 h): 0.02 %ID/g

CCCC[C@H](NC(=O)CNC(=O)CNC(=O)CN1CCN(CC(=O)O)CCN(CC(=O)O)CC1)C(=O)N[C@H]1CC(=O)NCCCC[C@@H](C(N)=O)NC(=O)[C@H](Cc2c[nH]c3ccccc23)NC(=O)[C@H](CCCNC(=N)N)NC(=O)[C@@H](Cc2ccccc2)NC(=O)[C@H](Cc2c[nH]cn2)NC1=O [gallium-67 labelled]
tissue uptake (female C57 mice, B16/F1 melanoma, lung; intravenous, 0.037 MBq, 24 h): 0.35 ± 0.08 %ID/g

N#C[C@@H]1CCCN1C(=O)CNC(=O)c1ccnc2ccc(OCCCN3CCN(C(=O)CCc4ccc5c(c4)CN4CCN(Cc6cc(CCC(=O)O)ccc6O)CC(=O)[O][Al-]([18F])([O]C(=O)C4)[O]5)CC3)cc12 (stereo partly shown)
tissue uptake (BALB/c nude mice, U-87 MG xenograft, tumour; 1 h, blocked 60 min, together with: DOTA-FAPI-04 40 nmol co-injected): 0.47 ± 0.15 %ID/g

NC12CNCCNCC(NCc3ccc(CNC(=O)CCCC(=O)NCc4ccc(-c5nncnn5)cc4)cc3)(CNCCNC1)CNCCNC2.[64Cu+2]
tissue uptake (athymic nude mice, SW1222 xenograft, liver; 24 h post-injection, 24 h pretargeting interval, together with: huA33-TCO pretargeting): 1.51 ± 0.2 %ID/g

CN1C(=O)[C@@H](Cc2ccc(O)c(I)c2)NC(=O)CNC(=O)[C@H](Cc2ccc3ccccc3c2)NC(=O)[C@H](CCCNC(=N)N)NC(=O)[C@H]1CCCNC(=O)c1ccc(CNC(=O)CN2CCN(CC(=O)O)CCN(CC(=O)O)CCN(CC(=O)O)CC2)cc1 [lutetium-177 labelled]
tissue uptake (item: 177Lu radioactivity; female CB-17 SCID mice, Daudi xenograft, large intestine; intravenous, 0.16 nmol per mouse, 1 h): 1.3 ± 1.2 %ID/g

O=C([O-])CN1CCN(CC(=O)O)CCN(CC(=O)[O-])CCN(CC(=O)NCC2CCC(C(=O)NC(Cc3ccc4ccccc4c3)C(=O)NCCCCC(NC(=O)NC(CCC(=O)O)C(=O)O)C(=O)O)CC2)CC1.[212Pb+2] (stereo not shown)
tissue uptake (athymic mice, C4-2 prostate cancer xenograft, kidney; intravenous, 2 h, 212Pb-labelled): 52.8 ± 26.6 %ID/g

O=C([O-])c1cccc(CN(CCN(Cc2cn(Cc3ccccc3)nn2)Cc2cccc(C(=O)[O-])n2)Cc2cn(Cc3ccccc3)nn2)n1.[64Cu+2]
tissue uptake (healthy athymic nude mice, spleen; intravenous, 1 h): 2.27 %ID/g

CCCC[C@H](NC(=O)CNC(=O)CNC(=O)CN1CCN(CC(=O)O)CCN(CC(=O)O)CCN(CC(=O)O)CC1)C(=O)N[C@H]1CC(=O)NCCCC[C@@H](C(N)=O)NC(=O)[C@H](Cc2c[nH]c3ccccc23)NC(=O)[C@H](CCCNC(=N)N)NC(=O)[C@@H](Cc2ccccc2)NC(=O)[C@H](Cc2c[nH]cn2)NC1=O [gallium-67 labelled]
tissue uptake (female C57 mice, B16/F1 melanoma, muscle; intravenous, 0.037 MBq, 2 h): 0.34 ± 0.1 %ID/g

CC(C)[C@H](NC(=O)[C@@H]1CCCN1C(=O)[C@H](CCCNC(=N)N)NC(=O)[C@H](CS)NC(=O)[C@H](Cc1c[nH]c2ccccc12)NC(=O)[C@H](CCCNC(=N)N)NC(=O)[C@@H](Cc1ccccc1)NC(=O)[C@H](Cc1c[nH]cn1)NC(=O)[C@H](CCC(=O)O)NC(=O)[C@H](CS)NC(=O)[C@H](CS)NC(=O)CNC(=O)[C@@H]1CC(=O)N[C@@H](CCCNC(=N)N)C(=O)NCC(=O)N[C@@H](CC(=O)O)C(=O)N[C@H](Cc2ccc(O)cc2)C(=O)N1)C(N)=O [technetium-99m labelled]
tissue uptake (C57 mice B16/F1 melanoma female, kidneys; iv, 0.037 MBq, 24 h): 3.23 ± 1.01 %ID/g

For quick reference, copied from above:
O=C([O-])CN1CCN(CC(=O)O)CCN(CC(=O)[O-])CCN(CC(=O)NCC2CCC(C(=O)NC(Cc3ccc4ccccc4c3)C(=O)NCCCCC(NC(=O)NC(CCC(=O)O)C(=O)O)C(=O)O)CC2)CC1.[212Pb+2] (stereo not shown)
tissue uptake (athymic mice, C4-2 prostate cancer xenograft, kidney; intravenous, 2 h, 212Pb-labelled): 52.8 ± 26.6 %ID/g
